Measured values of several laboratories.
Every numbered part comes from another study and shows a few of its results, in no order. Several values in a cell are separate wells, animals, samples, runs or records.
Chain of UniProt P53350 (whole entry, looked up): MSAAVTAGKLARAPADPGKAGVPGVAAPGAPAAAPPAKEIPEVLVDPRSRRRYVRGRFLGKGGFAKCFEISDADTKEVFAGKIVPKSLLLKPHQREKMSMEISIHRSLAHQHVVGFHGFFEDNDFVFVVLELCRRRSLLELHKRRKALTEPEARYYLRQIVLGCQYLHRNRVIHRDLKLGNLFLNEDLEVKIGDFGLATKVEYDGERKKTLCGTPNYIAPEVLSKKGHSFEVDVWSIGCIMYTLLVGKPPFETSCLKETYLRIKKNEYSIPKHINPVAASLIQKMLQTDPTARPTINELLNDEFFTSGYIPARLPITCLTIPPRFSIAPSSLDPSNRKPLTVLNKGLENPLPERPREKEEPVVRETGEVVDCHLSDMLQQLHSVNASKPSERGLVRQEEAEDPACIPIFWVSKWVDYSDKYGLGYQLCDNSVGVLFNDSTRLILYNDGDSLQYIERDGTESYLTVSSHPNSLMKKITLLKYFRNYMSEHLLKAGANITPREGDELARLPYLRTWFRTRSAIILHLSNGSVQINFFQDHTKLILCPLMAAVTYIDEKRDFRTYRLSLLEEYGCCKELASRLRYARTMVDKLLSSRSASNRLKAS
Chain of UniProt P09769 (whole entry, looked up): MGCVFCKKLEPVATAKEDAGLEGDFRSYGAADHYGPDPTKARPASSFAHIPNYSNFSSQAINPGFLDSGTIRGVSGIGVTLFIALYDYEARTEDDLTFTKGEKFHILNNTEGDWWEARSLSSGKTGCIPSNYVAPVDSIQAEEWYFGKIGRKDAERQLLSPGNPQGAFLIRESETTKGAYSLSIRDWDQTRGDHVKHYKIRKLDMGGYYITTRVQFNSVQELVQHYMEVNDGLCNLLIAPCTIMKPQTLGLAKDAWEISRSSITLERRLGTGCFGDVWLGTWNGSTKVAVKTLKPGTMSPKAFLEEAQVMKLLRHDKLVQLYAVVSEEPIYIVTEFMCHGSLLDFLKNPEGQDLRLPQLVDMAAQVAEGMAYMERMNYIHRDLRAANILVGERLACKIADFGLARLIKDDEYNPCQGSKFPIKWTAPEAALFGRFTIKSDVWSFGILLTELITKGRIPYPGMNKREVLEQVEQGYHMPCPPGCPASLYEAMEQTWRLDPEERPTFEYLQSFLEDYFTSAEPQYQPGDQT
Chain of UniProt Q12851 (whole entry, looked up): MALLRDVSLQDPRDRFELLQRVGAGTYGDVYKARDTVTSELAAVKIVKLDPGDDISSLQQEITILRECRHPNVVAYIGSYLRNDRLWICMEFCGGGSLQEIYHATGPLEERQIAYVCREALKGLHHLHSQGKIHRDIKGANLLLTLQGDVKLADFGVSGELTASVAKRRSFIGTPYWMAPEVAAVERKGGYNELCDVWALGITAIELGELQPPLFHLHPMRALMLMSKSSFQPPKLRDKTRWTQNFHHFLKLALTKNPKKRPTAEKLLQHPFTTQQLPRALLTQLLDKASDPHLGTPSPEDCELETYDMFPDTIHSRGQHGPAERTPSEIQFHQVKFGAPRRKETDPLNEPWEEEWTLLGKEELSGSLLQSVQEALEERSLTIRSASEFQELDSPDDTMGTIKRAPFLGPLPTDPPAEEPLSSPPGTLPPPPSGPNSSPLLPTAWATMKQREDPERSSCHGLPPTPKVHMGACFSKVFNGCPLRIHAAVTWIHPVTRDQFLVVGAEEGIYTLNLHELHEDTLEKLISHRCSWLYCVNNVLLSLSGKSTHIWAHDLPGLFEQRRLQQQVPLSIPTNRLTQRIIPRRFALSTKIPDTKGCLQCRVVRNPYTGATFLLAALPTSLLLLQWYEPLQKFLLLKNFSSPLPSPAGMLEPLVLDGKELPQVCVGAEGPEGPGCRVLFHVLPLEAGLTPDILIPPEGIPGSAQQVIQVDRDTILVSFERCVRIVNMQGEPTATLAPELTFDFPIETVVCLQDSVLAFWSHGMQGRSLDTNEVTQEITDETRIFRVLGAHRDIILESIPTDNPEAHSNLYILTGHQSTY
Chain of UniProt Q9NRP7 (whole entry, looked up): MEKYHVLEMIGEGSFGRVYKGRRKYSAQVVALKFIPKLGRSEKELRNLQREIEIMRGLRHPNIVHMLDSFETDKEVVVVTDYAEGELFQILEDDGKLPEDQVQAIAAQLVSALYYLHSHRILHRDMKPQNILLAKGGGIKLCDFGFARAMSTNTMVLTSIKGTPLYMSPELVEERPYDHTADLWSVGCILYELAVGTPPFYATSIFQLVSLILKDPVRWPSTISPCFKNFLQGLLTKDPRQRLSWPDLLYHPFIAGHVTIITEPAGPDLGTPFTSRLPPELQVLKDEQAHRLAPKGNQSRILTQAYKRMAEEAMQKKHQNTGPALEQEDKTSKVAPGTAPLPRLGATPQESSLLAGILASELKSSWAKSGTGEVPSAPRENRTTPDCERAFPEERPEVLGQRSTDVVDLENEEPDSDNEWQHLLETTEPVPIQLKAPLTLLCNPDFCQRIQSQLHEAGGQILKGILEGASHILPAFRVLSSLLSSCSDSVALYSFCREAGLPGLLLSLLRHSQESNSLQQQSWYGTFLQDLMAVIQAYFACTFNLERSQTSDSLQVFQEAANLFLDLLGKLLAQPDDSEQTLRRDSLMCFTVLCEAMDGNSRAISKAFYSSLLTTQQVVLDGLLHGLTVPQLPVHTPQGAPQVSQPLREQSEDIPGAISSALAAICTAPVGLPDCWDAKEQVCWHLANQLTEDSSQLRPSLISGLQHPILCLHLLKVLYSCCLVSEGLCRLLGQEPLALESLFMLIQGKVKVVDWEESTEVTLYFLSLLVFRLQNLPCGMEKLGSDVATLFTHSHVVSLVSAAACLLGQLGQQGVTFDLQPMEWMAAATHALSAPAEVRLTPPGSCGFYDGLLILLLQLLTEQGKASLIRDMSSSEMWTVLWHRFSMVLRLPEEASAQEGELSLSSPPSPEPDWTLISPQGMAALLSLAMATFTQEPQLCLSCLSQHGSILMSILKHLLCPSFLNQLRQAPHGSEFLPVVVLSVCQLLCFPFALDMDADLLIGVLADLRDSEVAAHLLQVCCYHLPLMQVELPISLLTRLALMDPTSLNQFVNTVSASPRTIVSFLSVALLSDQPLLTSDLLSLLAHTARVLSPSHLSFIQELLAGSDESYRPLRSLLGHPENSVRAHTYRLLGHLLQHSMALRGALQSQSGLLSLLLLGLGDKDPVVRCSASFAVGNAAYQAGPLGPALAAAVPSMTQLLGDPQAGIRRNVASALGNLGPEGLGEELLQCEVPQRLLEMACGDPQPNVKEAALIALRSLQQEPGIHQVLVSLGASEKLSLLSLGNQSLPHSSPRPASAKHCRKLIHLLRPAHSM
Chain of UniProt Q9UBF8 (whole entry, looked up): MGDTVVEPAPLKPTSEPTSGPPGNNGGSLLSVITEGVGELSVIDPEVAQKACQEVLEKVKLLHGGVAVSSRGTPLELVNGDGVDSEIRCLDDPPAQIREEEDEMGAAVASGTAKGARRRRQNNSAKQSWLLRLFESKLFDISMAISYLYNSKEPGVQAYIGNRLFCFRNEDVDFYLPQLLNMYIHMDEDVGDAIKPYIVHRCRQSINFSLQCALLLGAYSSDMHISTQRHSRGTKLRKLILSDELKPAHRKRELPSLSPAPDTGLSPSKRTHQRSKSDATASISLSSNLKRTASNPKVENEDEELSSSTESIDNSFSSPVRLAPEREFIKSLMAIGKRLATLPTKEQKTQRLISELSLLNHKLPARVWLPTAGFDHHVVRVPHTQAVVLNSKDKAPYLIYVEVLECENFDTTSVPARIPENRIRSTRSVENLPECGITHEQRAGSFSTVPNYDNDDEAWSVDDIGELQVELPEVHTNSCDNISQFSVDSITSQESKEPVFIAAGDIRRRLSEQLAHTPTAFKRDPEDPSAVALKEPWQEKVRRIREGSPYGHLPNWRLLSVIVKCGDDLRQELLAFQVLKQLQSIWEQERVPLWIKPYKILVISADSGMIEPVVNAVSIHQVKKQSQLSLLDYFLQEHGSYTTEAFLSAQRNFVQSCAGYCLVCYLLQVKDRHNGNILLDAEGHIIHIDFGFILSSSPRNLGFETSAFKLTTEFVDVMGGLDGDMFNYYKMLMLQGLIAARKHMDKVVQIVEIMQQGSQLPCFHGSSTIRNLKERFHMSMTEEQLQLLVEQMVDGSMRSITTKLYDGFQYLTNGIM
Chain of UniProt P29317 (whole entry, looked up): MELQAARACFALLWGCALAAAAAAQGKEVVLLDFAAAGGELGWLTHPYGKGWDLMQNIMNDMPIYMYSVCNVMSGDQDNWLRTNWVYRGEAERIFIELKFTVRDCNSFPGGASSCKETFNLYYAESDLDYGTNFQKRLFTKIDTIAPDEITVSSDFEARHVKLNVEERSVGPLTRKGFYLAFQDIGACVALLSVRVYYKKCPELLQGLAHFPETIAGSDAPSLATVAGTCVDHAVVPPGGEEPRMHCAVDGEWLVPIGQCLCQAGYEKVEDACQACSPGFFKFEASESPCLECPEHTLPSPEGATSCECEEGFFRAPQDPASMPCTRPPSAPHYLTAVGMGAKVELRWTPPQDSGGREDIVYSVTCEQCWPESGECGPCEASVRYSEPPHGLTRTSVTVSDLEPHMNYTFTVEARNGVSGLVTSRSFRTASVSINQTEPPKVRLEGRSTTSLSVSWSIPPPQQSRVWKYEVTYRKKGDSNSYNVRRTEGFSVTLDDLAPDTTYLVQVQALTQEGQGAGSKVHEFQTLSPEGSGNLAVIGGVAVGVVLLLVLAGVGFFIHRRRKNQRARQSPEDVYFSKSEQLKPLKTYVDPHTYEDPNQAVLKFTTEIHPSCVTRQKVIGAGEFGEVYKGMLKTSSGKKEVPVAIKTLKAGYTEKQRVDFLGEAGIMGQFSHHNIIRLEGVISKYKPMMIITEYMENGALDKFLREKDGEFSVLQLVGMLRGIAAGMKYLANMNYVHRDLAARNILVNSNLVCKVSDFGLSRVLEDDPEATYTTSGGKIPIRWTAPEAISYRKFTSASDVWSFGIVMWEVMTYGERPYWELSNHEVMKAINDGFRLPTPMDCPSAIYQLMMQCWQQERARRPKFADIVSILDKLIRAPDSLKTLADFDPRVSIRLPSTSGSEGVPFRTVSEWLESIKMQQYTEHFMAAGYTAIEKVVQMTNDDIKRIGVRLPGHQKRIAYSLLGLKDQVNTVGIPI

Study 1 — technique: competition with immobilised ligand
Structure (SMILES): CNC(=O)c1ccc(Nc2ncc(C(F)(F)F)c(NCc3nccnc3N(C)S(C)(=O)=O)n2)cc1
The remaining binding was 90% (MARK3 (Homo sapiens, UniProt P27448); cell-free assay; 0.1 µM).
MARK1 (Homo sapiens, UniProt Q9P0L2); cell-free assay; 0.1 µM — remaining binding: 100%.
NUAK1 (Homo sapiens, UniProt O60285); cell-free assay; 0.1 µM — remaining binding: 31%.
For EGFR (Homo sapiens, UniProt P00533, del752-759); cell-free assay; 0.1 µM: remaining binding read 85%.
It gave 85% for remaining binding (LYN (Homo sapiens, UniProt P07948); cell-free assay; 0.1 µM).
It gave 87% for remaining binding (PIK3C2B (Homo sapiens, UniProt O00750); cell-free assay; 0.1 µM).
For PIK3CA (Homo sapiens, UniProt P42336, Q546K); cell-free assay; 0.1 µM: remaining binding read 17%.
The remaining binding was 5.9% (FLT3 (Homo sapiens, UniProt P36888, D835Y); cell-free assay; 0.1 µM).
SGK1 (Homo sapiens, UniProt O00141); cell-free assay; 0.1 µM — remaining binding: 56%.
STK16 (Homo sapiens, UniProt O75716); binding; 1 µM — remaining binding: 7.7%.
For STK17A (Homo sapiens, UniProt Q9UEE5); cell-free assay; 0.1 µM: remaining binding read 19%.
It gave 84% for remaining binding (PLK1 (Homo sapiens, UniProt P53350); cell-free assay; 0.1 µM).
The remaining binding was 100% (YES1 (Homo sapiens, UniProt P07947); cell-free assay; 0.1 µM).
It gave 84% for remaining binding (ERBB4 (Homo sapiens, UniProt Q15303); cell-free assay; 0.1 µM).
For WNK1 (Homo sapiens, UniProt Q9H4A3); cell-free assay; 0.1 µM: remaining binding read 100%.
For STK36 (Homo sapiens, UniProt Q9NRP7); cell-free assay; 0.1 µM: remaining binding read 89%.
BMPR2 (Homo sapiens, UniProt Q13873); cell-free assay; 0.1 µM — remaining binding: 91%.
For EPHA2 (Homo sapiens, UniProt P29317); cell-free assay; 0.1 µM: remaining binding read 86%.
The remaining binding was 99% (PI4KB (Homo sapiens, UniProt Q9UBF8); cell-free assay; 0.1 µM).

Study 2 — effect on: binding; action: competitor; technique: NanoBRET; cells: HEK293
SMILES: Cn1cnc(Cn2ccc3ccc(CNCc4[nH]c5ccccc5c4[C@H]4NC(=O)c5ccc(O)cc54)cc32)c1
KRAS G12C: GTPase KRas (KRAS, Homo sapiens, UniProt P01116, G12C)
KRAS G12C; 741 nM, 0.5 h; relative to: vehicle and 20 µM BI compound — normalized BRET: 63.2% and 72.7% and 64.2% and 65.3%.
The normalized BRET was 49.8% and 49.4% and 54.3% and 43.4% (KRAS G12C; 741 nM, 3 h; relative to: vehicle and 20 µM BI compound).
It gave 3.53% and 5.74% and 4.55% and 4.07% for normalized BRET (KRAS G12C; 6.67 µM, 4 h; relative to: vehicle and 20 µM BI compound).
It gave 114% and 109% and 101% for normalized BRET (KRAS G12C; 82.2 nM, 3 h; relative to: vehicle and 20 µM BI compound).
KRAS G12C; 3.05 nM, 2 h; relative to: vehicle and 20 µM BI compound — normalized BRET: 91.6% and 95.8% and 96.7% and 101%.
It gave 29.8% and 31.1% and 36.5% and 47.7% for normalized BRET (GTPase KRas (KRAS, Homo sapiens, UniProt P01116); 741 nM).
The normalized BRET was 3.65% and 2.4% and 4.42% and 3.12% (KRAS G12C; 6.67 µM, 2 h; relative to: vehicle and 20 µM BI compound).
KRAS G12C; 82.2 nM, 1 h; relative to: vehicle and 20 µM BI compound — normalized BRET: 98.3% and 90.8% and 95.1% and 106%.
The normalized BRET was 99.3% and 82% and 77.5% and 80.5% (KRAS G12C; 3.05 nM, 4 h; relative to: vehicle and 20 µM BI compound).

Study 3 — effect on: cell-free assay; tested at: 0.5 µM
Target: NUAK family SNF1-like kinase 2 (NUAK2, Homo sapiens, UniProt Q9H093)
Target sequence (Q9H093 1-628): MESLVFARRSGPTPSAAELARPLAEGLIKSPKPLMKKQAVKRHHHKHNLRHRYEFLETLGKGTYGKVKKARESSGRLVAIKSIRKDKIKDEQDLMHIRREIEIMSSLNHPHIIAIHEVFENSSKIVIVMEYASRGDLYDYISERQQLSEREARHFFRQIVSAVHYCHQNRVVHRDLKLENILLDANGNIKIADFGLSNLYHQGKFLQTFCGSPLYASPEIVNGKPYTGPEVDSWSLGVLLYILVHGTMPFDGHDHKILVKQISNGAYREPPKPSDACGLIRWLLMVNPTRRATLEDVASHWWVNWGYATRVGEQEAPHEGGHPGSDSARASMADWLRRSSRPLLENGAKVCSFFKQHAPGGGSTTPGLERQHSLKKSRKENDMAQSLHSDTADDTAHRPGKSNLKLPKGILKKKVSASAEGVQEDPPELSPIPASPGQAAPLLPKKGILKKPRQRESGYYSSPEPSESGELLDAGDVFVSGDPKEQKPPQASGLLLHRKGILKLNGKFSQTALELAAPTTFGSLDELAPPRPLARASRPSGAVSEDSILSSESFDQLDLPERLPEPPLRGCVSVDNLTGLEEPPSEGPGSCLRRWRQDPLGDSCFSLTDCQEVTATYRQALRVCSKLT
With `COc1cc2ncnc(Nc3ccc(F)c(Cl)c3)c2cc1OCCCN1CCOCC1` the remaining signal was 96%.
With `COc1cc(Nc2c(C#N)cnc3cc(OCCCN4CCN(C)CC4)c(OC)cc23)c(Cl)cc1Cl` the remaining signal was 59.5%.
For `Clc1ccc(Nc2nnc(Cc3ccncc3)c3ccccc23)cc1`, the remaining signal was 105%.

Study 4 — tested at: 1 µM
SMILES: C[C@H]1CC[C@H](n2c3cnccc3c3cnc(Nc4ccc5c(n4)CCN(C(=O)CO)C5)nc32)CC1
It gave 24% for remaining binding (NLK (Homo sapiens, UniProt Q9UBE8); binding, competition with immobilised ligand).
The remaining binding was 95% (TGFBR1 (Homo sapiens, UniProt P36897); cell-free assay, competition with immobilised ligand).
The remaining binding was 100% (MST1R (Homo sapiens, UniProt Q04912); binding).
The remaining binding was 82% (BMX (Homo sapiens, UniProt P51813); binding, competition with immobilised ligand).
For FGR (Homo sapiens, UniProt P09769); cell-free assay, competition with immobilised ligand: remaining binding read 38%.
For CDK3 (Homo sapiens, UniProt Q00526); binding, competition with immobilised ligand: remaining binding read 70%.
The remaining binding was 64% (MAP4K2 (Homo sapiens, UniProt Q12851); binding, competition with immobilised ligand).
PKMYT1 (Homo sapiens, UniProt Q99640); binding, competition with immobilised ligand — remaining binding: 98%.
The remaining binding was 100% (STK4 (Homo sapiens, UniProt Q13043); binding, competition with immobilised ligand).

Repeated from above (study 1):
SGK1 (Homo sapiens, UniProt O00141); cell-free assay; 0.1 µM — remaining binding: 56%.
For PIK3CA (Homo sapiens, UniProt P42336, Q546K); cell-free assay; 0.1 µM: remaining binding read 17%.
BMPR2 (Homo sapiens, UniProt Q13873); cell-free assay; 0.1 µM — remaining binding: 91%.
The remaining binding was 100% (YES1 (Homo sapiens, UniProt P07947); cell-free assay; 0.1 µM).
For WNK1 (Homo sapiens, UniProt Q9H4A3); cell-free assay; 0.1 µM: remaining binding read 100%.
It gave 85% for remaining binding (LYN (Homo sapiens, UniProt P07948); cell-free assay; 0.1 µM).
